Measured values of several laboratories.
Protocols differ between the studies behind these lines. ± gives the spread as reported.

| SMILES | tested on | assay | test system | conditions | endpoint | value |
| --- | --- | --- | --- | --- | --- | --- |
| CC[C@H](C)[C@H](NC(=O)[C@@H](CCCNC(=N)N)NC(=O)[C@H](CCCNC(=N)N)NC(=O)[C@@H]1CCCN1C(=O)[C@@H]1CCCN1C(=O)[C@H](CCCNC(=N)N)NC(=O)[C@@H]1CCCN1C(=O)[C@H](CCCNC(=N)N)NC(=O)[C@@H]1CCCN1C(=O)[C@H](CCSC)NC(=O)[C@H](Cc1ccc(O)cc1)NC(=O)[C@@H]1CCCN1C(=O)[C@@H]1CCCN1C(=O)[C@H](CCCCN)NC(=O)[C@H](CC(=O)O)NC(=O)[C@@H](N)C(C)C)C(=O)N[C@@H](Cc1ccc(O)cc1)C(=O)N[C@@H](CC(N)=O)C(=O)N[C@H](CCCNC(=N)N)C(N)=O | Escherichia coli | broth microdilution | BW25113 | 18 h, 37 °C, 25% MHB2 | MIC | 16 µg/mL |
| CO[C@@H](C(N)=O)[C@H](NC(=O)c1ccc(NC(=O)[C@@H](N)Cc2ccc(O)cc2)cc1)C(=O)Nc1ccc(C(=O)Nc2ccc(C(=O)Nc3ccc(C(=O)O)c(O)c3OC(C)C)c(O)c2OC(C)C)cc1 | Escherichia coli | – | glutathione S-transferase-like clone | 16 h, 37 °C | MIC | 1 µg/mL |
| CC(C)C[C@H](NC(=O)[C@H](CC(C)C)NC(=O)[C@H](CCCCN)NC(=O)[C@H](Cc1ccccc1)NC(=O)[C@@H](NC(=O)[C@H](CCCNC(=N)N)NC(=O)[C@H](CCCCN)NC(=O)[C@H](Cc1c[nH]c2ccccc12)NC(=O)[C@@H](NC(=O)[C@@H](N)CCCNC(=N)N)C(C)C)C(C)C)C(=O)N[C@@H](CCCCN)C(=O)N[C@@H](CCCNC(=N)N)C(=O)N[C@@H](Cc1ccc(O)cc1)C(=O)N[C@@H](Cc1c[nH]c2ccccc12)C(=O)N[C@@H](CCCNC(=N)N)C(N)=O | Escherichia coli | broth microdilution | 25922 | – | MIC | 1.25 µg/mL |
| CC[C@H](C)[C@H](N)C(=O)N1CCC[C@H]1C(=O)N[C@@H](Cc1ccccc1)C(=O)N[C@@H](Cc1c[nH]c2ccccc12)C(=O)N[C@@H](CCCNC(=N)N)C(=O)N[C@@H](Cc1c[nH]c2ccccc12)C(=O)N[C@@H](CC(C)C)C(=O)N[C@@H](CC(C)C)C(=O)N[C@@H](CCC(N)=O)C(=O)N[C@@H](CCCNC(=N)N)C(=O)N[C@@H](CC(C)C)C(=O)N1CCC[C@H]1C(=O)NCC(=O)O | Escherichia coli | broth microdilution | ATCC 25922 | – | MIC | 76.1 µM |
| CC(C)C[C@H](NC(=O)[C@@H](NC(=O)[C@H](CCCCN)NC(=O)[C@H](CCCCN)NC(=O)[C@H](CC(C)C)NC(=O)[C@H](Cc1c[nH]c2ccccc12)NC(=O)[C@H](CCCCN)NC(=O)[C@H](CC(C)C)NC(=O)[C@H](CC(C)C)NC(=O)[C@H](CCCCN)NC(=O)[C@H](CCCCN)NC(=O)[C@@H](N)C(C)C)C(C)C)C(N)=O | Escherichia coli | – | – | 24 h, 37 °C, Mueller-Hinton broth, NaCl 150 mM | MIC | 64 µM |
| CC(C)C[C@@H](NC(=O)[C@@H](CCCNC(=N)N)NC(=O)[C@H](N)CCCNC(=N)N)C(=O)N[C@H](CC(C)C)C(=O)N[C@H](CCCNC(=N)N)C(=O)N[C@H](CCCCN)C(=O)N[C@H](CC(C)C)C(=O)N[C@H](CCCCN)C(=O)NCC(=O)N[C@H](CCCCN)C(=O)N[C@H](CCCCN)C(=O)N[C@H](CC(C)C)C(=O)N[C@H](Cc1ccc(O)cc1)C(=O)N[C@H](CC(C)C)C(=O)N[C@H](Cc1ccc(O)cc1)C(=O)N[C@H](Cc1ccccc1)C(=O)N[C@H](CCCCN)C(=O)N[C@H](CC(C)C)C(=O)N[C@H](CCC(N)=O)C(=O)N[C@H](CC(C)C)C(=O)N[C@H](CC(C)C)C(=O)N[C@H](CCCCN)C(=O)N[C@H](CCCCN)C(N)=O | Escherichia coli | – | KCTC 1682, Mueller-Hinton broth | together with: 4.5 mM KCl | MIC | 16 µM |
| OB(O)c1cnn(-c2cc(Cl)ncn2)c1 | Escherichia coli | bacterial growth | CTX-M-14 ESBL clinical isolate | without cefotaxime | MIC | 2050 µg/mL |
| O=C1NC2(CC2)COc2ncc(F)cc2[C@H]2COCCN2c2ccn3ncc1c3n2 | – | – | Sprague-Dawley rat, female, blood | oral, 10 mg/kg/day, 4 weeks, end of recovery, subacute toxicity | haemoglobin | 128 ± 10 g/L |
| C=CCO/N=C(\C(=O)N[C@@H]1C(=O)N(OS(=O)(=O)O)C1(C)C)c1csc(N)n1 | Escherichia coli | agar dilution | 08-85, mcr-1 | – | MIC | 0.5 µg/mL |
| CC(C)[C@H](NC(=O)CNC(=O)CNC(=O)[C@H](Cc1ccc(O)cc1)NC(=O)[C@H](CS)NC(=O)[C@@H](NC(=O)[C@H](Cc1c[nH]c2ccccc12)NC(=O)[C@H](Cc1ccccc1)NC(=O)[C@H](CS)NC(=O)[C@H](Cc1c[nH]c2ccccc12)NC(=O)[C@@H](N)CCCNC(=N)N)C(C)C)C(=O)N[C@@H](CS)C(=O)N[C@@H](Cc1ccc(O)cc1)C(=O)N[C@@H](CCCNC(=N)N)C(=O)N[C@@H](CCCNC(=N)N)C(=O)N[C@@H](CS)C(=O)N[C@@H](CCCNC(=N)N)C(=O)O | Escherichia coli | broth microdilution | K88, Mueller-Hinton broth | 37 °C | MIC | 2.2 µg/mL |
| CCCCCCCC(=O)N[C@@H](CCN)C(=O)N[C@H](C(=O)N[C@@H](CCN)C(=O)N[C@H]1CCNC(=O)[C@H]([C@@H](C)O)NC(=O)[C@H](CCN)NC(=O)[C@H](CCN)NC(=O)[C@H](CC(C)C)NC(=O)[C@@H](Cc2cc(F)c(F)c(F)c2)NC(=O)[C@H](CCN)NC1=O)[C@@H](C)O | Escherichia coli | broth microdilution | mcr-1, colistin-resistant | – | MIC | 1 to 2 µg/mL |
| Cc1ccnc(-c2cc(C(=O)NCCCCCC(=O)N[C@@H](CCCNC(=N)N)C(=O)N[C@@H](Cc3c[nH]c4ccccc34)C(=O)N[C@@H](CCCNC(=N)N)C(=O)N[C@@H](Cc3c[nH]c4ccccc34)C(=O)N[C@@H](CCCNC(=N)N)C(=O)N[C@@H](Cc3c[nH]c4ccccc34)C(N)=O)ccn2)c1 | Escherichia coli | – | ATCC 25922, susceptible | 18 h, 37 °C, dark | MIC | 16 µM |
| CC[C@H](C)[C@H](NC(=O)[C@@H](CCCNC(=N)N)NC(=O)[C@H](CCCNC(=N)N)NC(=O)[C@@H]1CCCN1C(=O)[C@@H]1CCCN1C(=O)[C@H](Cc1ccccc1)NC(=O)[C@@H]1CCCN1C(=O)[C@H](CCCNC(=N)N)NC(=O)[C@@H]1CCCN1C(=O)[C@H](CC(C)C)NC(=O)[C@H](Cc1ccc(O)cc1)NC(=O)[C@@H]1CCCN1C(=O)[C@@H]1CCCN1C(=O)[C@H](CCCCN)NC(=O)[C@H](CC(=O)O)NC(=O)[C@@H](N)C(C)C)C(=O)N[C@@H](Cc1ccc(O)cc1)C(=O)N[C@@H](CC(N)=O)C(=O)N[C@H](CCCNC(=N)N)C(N)=O | Escherichia coli | broth microdilution | BW25113 | 18 h, 37 °C, 25% MHB2 | MIC | 16 µg/mL |
| COc1ccc2c(c1OC)C[NH+]1CCc3cc4c(cc3C1C2)OCO4.[Cl][Fe-]([Cl])([Cl])[Cl] (centres unmarked) | Escherichia coli | – | – | 24 h, 37 °C | MIC | > 1600 µM |
| CC[C@H](C)[C@H](NC(=O)[C@@H](CCCNC(=N)N)NC(=O)[C@H](CCCNC(=N)N)NC(=O)[C@@H]1CCCN1C(=O)[C@@H]1CCCN1C(=O)[C@H](CCCNC(=N)N)NC(=O)[C@H](Cc1c[nH]c2ccccc12)NC(=O)[C@H](CCCNC(=N)N)NC(=O)[C@@H]1CCCN1C(=O)[C@H](CC(C)C)NC(=O)[C@H](Cc1ccc(O)cc1)NC(=O)[C@@H]1CCCN1C(=O)[C@@H]1CCCN1C(=O)[C@H](CCCCN)NC(=O)[C@H](CC(=O)O)NC(=O)[C@@H](N)C(C)C)C(=O)N[C@@H](Cc1ccc(O)cc1)C(=O)N[C@@H](CC(N)=O)C(=O)N[C@H](CCCNC(=N)N)C(N)=O | Escherichia coli | broth microdilution | MC4100 | 18 h, 37 °C, 25% MHB2 | MIC | 8 µg/mL |
| CC[C@H](C)[C@@H]1NC(=O)[C@@H]2CCCN2C(=O)[C@H](C)NC(=O)[C@H](CC(C)C)NC(=O)[C@@H]2CCCN2C(=O)[C@H](C)NC(=O)[C@@H]2CSSC[C@H](NC(=O)[C@H](C)NC(=O)[C@H](C)NC(=O)[C@H](Cc3ccc(O)cc3)NC(=O)[C@@H]3CCCN3C(=O)CNC(=O)[C@H](Cc3c[nH]c4ccccc34)NC1=O)C(=O)N[C@@H](CC(C)C)C(=O)N[C@@H](CO)C(=O)N[C@@H](C)C(=O)N[C@H]1CSSC[C@H](NC(=O)[C@H](C(C)C)NC(=O)[C@@H]3CCCN3C(=O)CNC(=O)CNC(=O)CNC(=O)[C@H](C)NC(=O)[C@H](C)NC(=O)[C@H](CC(C)C)NC1=O)C(=O)N[C@@H](CC(C)C)C(=O)N[C@@H](C)C(=O)N[C@@H](C(C)C)C(=O)N2 | Escherichia coli | – | ATCC 25922 | – | MIC | > 128 µg/mL |
| CC[C@H](C)[C@H](NC(=O)[C@@H](CCCNC(=N)N)NC(=O)[C@H](CCCNC(=N)N)NC(=O)[C@@H]1CCCN1C(=O)[C@@H]1CCCN1C(=O)[C@H](CCCNC(=N)N)NC(=O)[C@@H]1CCCN1C(=O)[C@H](CCCNC(=N)N)NC(=O)[C@@H]1CCCN1C(=O)[C@@H](NC(=O)[C@H](Cc1ccc(O)cc1)NC(=O)[C@@H]1CCCN1C(=O)[C@@H]1CCCN1C(=O)[C@H](CCCCN)NC(=O)[C@H](CC(=O)O)NC(=O)[C@@H](N)C(C)C)C(C)(C)C)C(=O)N[C@@H](Cc1ccc(O)cc1)C(=O)N[C@@H](CC(N)=O)C(=O)N[C@H](CCCNC(=N)N)C(N)=O | Escherichia coli | broth microdilution | ATCC 25922 | 18 h, 37 °C, 25% MHB2 | MIC | 16 µg/mL |
| CC[C@H](C)[C@H](NC(=O)[C@@H](NC(=O)[C@H](CCCCN)NC(=O)[C@H](CCCCN)NC(=O)[C@@H](NC(=O)[C@H](Cc1c[nH]c2ccccc12)NC(=O)[C@H](CCCCN)NC(=O)[C@@H](NC(=O)[C@H](CC(C)C)NC(=O)[C@H](CCCCN)NC(=O)[C@H](CCCCN)NC(=O)[C@@H](N)C(C)C)[C@@H](C)CC)[C@@H](C)CC)C(C)C)C(N)=O | Escherichia coli | – | – | 24 h, 37 °C, Mueller-Hinton broth, no additive | MIC | 32 µM |
| CC[C@H](C)[C@H](NC(=O)[C@@H](CCCNC(=N)N)NC(=O)[C@H](CCCNC(=N)N)NC(=O)[C@H](CC(N)=O)NC(=O)[C@H](Cc1c[nH]c2ccccc12)NC(=O)[C@H](CCCNC(=N)N)NC(=O)[C@@H]1CCCN1C(=O)[C@H](CCCNC(=N)N)NC(=O)[C@@H]1CCCN1C(=O)[C@H](CC(C)C)NC(=O)[C@H](Cc1ccc(O)cc1)NC(=O)[C@@H]1CCCN1C(=O)[C@@H]1CCCN1C(=O)[C@H](CCCCN)NC(=O)[C@H](CC(=O)O)NC(=O)[C@@H](N)C(C)C)C(=O)N[C@@H](Cc1ccc(O)cc1)C(=O)N[C@@H](CC(N)=O)C(=O)N[C@H](CCCNC(=N)N)C(N)=O | Escherichia coli | broth microdilution | MC4100 | 18 h, 37 °C, 25% MHB2 | MIC | 4 µg/mL |
| CCn1c(-c2ccc(F)cc2)c(-c2ccc(F)cc2)n(CC)c1=[Se] | Escherichia coli | broth microdilution | carbapenem-resistant BAA-2140 | 24 h | MIC | > 40 µM |

For quick reference, copied from above:
| SMILES | tested on | assay | test system | conditions | endpoint | value |
| --- | --- | --- | --- | --- | --- | --- |
| CC[C@H](C)[C@H](N)C(=O)N1CCC[C@H]1C(=O)N[C@@H](Cc1ccccc1)C(=O)N[C@@H](Cc1c[nH]c2ccccc12)C(=O)N[C@@H](CCCNC(=N)N)C(=O)N[C@@H](Cc1c[nH]c2ccccc12)C(=O)N[C@@H](CC(C)C)C(=O)N[C@@H](CC(C)C)C(=O)N[C@@H](CCC(N)=O)C(=O)N[C@@H](CCCNC(=N)N)C(=O)N[C@@H](CC(C)C)C(=O)N1CCC[C@H]1C(=O)NCC(=O)O | Escherichia coli | broth microdilution | ATCC 25922 | – | MIC | 76.1 µM |
| CC[C@H](C)[C@H](NC(=O)[C@@H](CCCNC(=N)N)NC(=O)[C@H](CCCNC(=N)N)NC(=O)[C@H](CC(N)=O)NC(=O)[C@H](Cc1c[nH]c2ccccc12)NC(=O)[C@H](CCCNC(=N)N)NC(=O)[C@@H]1CCCN1C(=O)[C@H](CCCNC(=N)N)NC(=O)[C@@H]1CCCN1C(=O)[C@H](CC(C)C)NC(=O)[C@H](Cc1ccc(O)cc1)NC(=O)[C@@H]1CCCN1C(=O)[C@@H]1CCCN1C(=O)[C@H](CCCCN)NC(=O)[C@H](CC(=O)O)NC(=O)[C@@H](N)C(C)C)C(=O)N[C@@H](Cc1ccc(O)cc1)C(=O)N[C@@H](CC(N)=O)C(=O)N[C@H](CCCNC(=N)N)C(N)=O | Escherichia coli | broth microdilution | MC4100 | 18 h, 37 °C, 25% MHB2 | MIC | 4 µg/mL |
| C=CCO/N=C(\C(=O)N[C@@H]1C(=O)N(OS(=O)(=O)O)C1(C)C)c1csc(N)n1 | Escherichia coli | agar dilution | 08-85, mcr-1 | – | MIC | 0.5 µg/mL |
